# Assay results collected from several papers.
# Compare with care: the assays were run in different laboratories. ± gives the spread as reported.
SMILES,target,assay,test system,conditions,how to read,endpoint,value
Cc1ccc2c(c1)nc(/C=C/c1cccc3cccnc13)n2-c1cccc(OCCCN2CCN(C)CC2)c1,PDE10A Y693A mutant,"enzyme activity, inhibitor",,,reference: mutant over wild type,potency loss,13 fold
CC(C)C[C@H](NC(=O)[C@H](CCC(N)=O)NC(=O)[C@H](CCCNC(=N)N)NC(=O)[C@H](CCCNC(=N)N)NC(=O)[C@@H](NC(=O)[C@H](CCCNC(=N)N)NC(=O)[C@@H](NC(=O)[C@H](CO)NC(=O)[C@@H](N)CS)[C@@H](C)O)C(C)C)C(N)=O,human Nox1/p47phox/p67phox,"inhibitor, cytochrome c reduction",,10 µM,,superoxide production,no inhibition
COc1ccc(C(=O)/C=C/c2ccccc2)cc1,"HDAC class I, II and IV (human)","enzyme activity, inhibitor, fluorometric",K562 cell extract,"1 h, 37 °C",,IC50,> 1000 µM
COc1ccc(NC(=O)[C@H](CCCCN)NC(=O)c2cc(NC(=O)[C@H](CCCCN)NC(=O)c3cc(NC(=O)[C@H](CCCCN)NC(=O)c4cc(NC(C)=O)ccc4OC)ccc3OC)ccc2OC)cc1C(N)=O,antithrombin III-factor Xa,"fondaparinux reversal, amidolytic",,"pH 8.4, with: fondaparinux 0.02 µg/mL",,EC50,2.3 µM
O=C([O-])CN(CCN(CC(=O)[O-])CC(=O)NCCc1c[nH]c2ccc(O)cc12)CCN(CC(=O)[O-])CC(=O)NCCc1c[nH]c2ccc(O)cc12.[Gd+3],myeloperoxidase mouse,"MR contrast, MR imaging","wild-type mouse, CFA inflammation","0.3 mmol/kg, 60 min",reference: first post-contrast scan,activation ratio increase,~2 fold
COc1ccc(CCC(=O)c2c(O)cc(OC)cc2O)cc1,"HDAC class I, II and IV (human)","enzyme activity, inhibitor, fluorometric",K562 cell extract,"1 h, 37 °C",,IC50,> 1000 µM
Clc1ccc(NN=C(c2ccccc2)c2ccccn2)nc1,histone deacetylase,,"mouse, tumour-bearing, tumour lysate",dose not given,reference: vehicle,HDAC activity,no effect
CCCCCCCCCCCCCCCC(=O)N[C@@H](CCCCN)C(=O)N[C@@H](CCCCN)C(=O)N[C@@H](CO)C(=O)N[C@@H](CCCNC(=N)N)C(=O)N[C@@H](C)C(=O)N[C@@H](CC(C)C)C(=O)N[C@@H](Cc1ccccc1)C(N)=O,baboon PAR1,ex vivo platelet aggregation,baboon,"intravenous infusion, 1 mg/kg, 1 to 2 h, infusion 30 min, with: SFLLRN 5 µM",,inhibition,5 to 10%
CCCCC/C=C/C(=O)CCc1ccc(O)c(OC)c1,mouse mAb 1-F12,"antibody binding, indirect competitive ELISA",,,,IC50,0.975 µg/mL
COc1ccc(NC(=O)[C@H](CCCCN)NC(=O)c2cc(NC(=O)[C@H](CCCCN)NC(=O)c3cc(NC(=O)[C@H](CCCCN)NC(=O)c4cc(N)ccc4OC)ccc3OC)ccc2OC)cc1C(N)=O,antithrombin III-factor Xa,"fondaparinux reversal, amidolytic",,"pH 8.4, with: fondaparinux 0.02 µg/mL",,EC50,6.8 µM
COc1cc(CCC(C)=O)ccc1O,mouse mAb 1-F12,"antibody binding, indirect competitive ELISA",,,,IC50,0.68 µg/mL
Cc1sc2ncn(CC(=O)N3CCCC3)c(=O)c2c1-c1cccc(Br)c1,"NMDA receptor, mouse","single-channel current, outside-out patch",cortical neurons,"concentration not given, holding -80 mV, with: Ca2+ 0.5 mM",,unitary current amplitude 1,-4.23 ± 0.55 pA

# A few entries again:
SMILES,target,assay,test system,conditions,how to read,endpoint,value
O=C([O-])CN(CCN(CC(=O)[O-])CC(=O)NCCc1c[nH]c2ccc(O)cc12)CCN(CC(=O)[O-])CC(=O)NCCc1c[nH]c2ccc(O)cc12.[Gd+3],myeloperoxidase mouse,"MR contrast, MR imaging","wild-type mouse, CFA inflammation","0.3 mmol/kg, 60 min",reference: first post-contrast scan,activation ratio increase,~2 fold
COc1ccc(CCC(=O)c2c(O)cc(OC)cc2O)cc1,"HDAC class I, II and IV (human)","enzyme activity, inhibitor, fluorometric",K562 cell extract,"1 h, 37 °C",,IC50,> 1000 µM
